Measured values of several laboratories.
A part holds a random share of what one study measured.

Block 1 — technique: universal PBM; molecule type: double-stranded DNA, one strand shown; matrix: in vitro; concentration: not given; reading: higher = stronger binding
Target: Sal-like protein 4, full length isoform B (SALL4, Homo sapiens, UniProt Q9UJQ4-2, residues 1-616)
Notes: 8-mer, flanks averaged, mean of replicates
Residues (chain): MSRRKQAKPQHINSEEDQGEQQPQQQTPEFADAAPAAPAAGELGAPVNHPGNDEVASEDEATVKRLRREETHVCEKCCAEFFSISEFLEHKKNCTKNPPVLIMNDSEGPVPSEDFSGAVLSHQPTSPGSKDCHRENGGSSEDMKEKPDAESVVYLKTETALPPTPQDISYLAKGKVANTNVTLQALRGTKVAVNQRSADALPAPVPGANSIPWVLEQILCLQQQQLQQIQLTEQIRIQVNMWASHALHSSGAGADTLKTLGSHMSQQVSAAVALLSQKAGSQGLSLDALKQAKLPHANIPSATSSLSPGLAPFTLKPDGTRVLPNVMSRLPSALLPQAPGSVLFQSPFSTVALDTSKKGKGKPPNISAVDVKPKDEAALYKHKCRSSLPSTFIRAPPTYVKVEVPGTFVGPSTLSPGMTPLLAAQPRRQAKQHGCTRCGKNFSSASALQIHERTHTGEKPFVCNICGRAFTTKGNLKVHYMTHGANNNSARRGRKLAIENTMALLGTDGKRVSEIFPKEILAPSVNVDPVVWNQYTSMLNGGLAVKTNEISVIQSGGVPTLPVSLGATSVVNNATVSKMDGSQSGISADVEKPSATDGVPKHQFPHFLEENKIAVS
`GAACCTGC` has an E-score of -0.202.
`ATTACTCA` gave an E-score of 0.291.
`CAGGGTAC` has an E-score of -0.194.
For `CACAGGTA`, the E-score was 0.091.
For `AGGACTAG`, the E-score was 0.00831.
`ATAACTCA` gave an E-score of 0.305.
`CGGACTCA` has an E-score of -0.169.
`ATGGCAAT` has an E-score of 0.127.

Block 2 — read-out: enzyme activity; action: inhibitor; concentration: 20 µM; notes: primary screen
Target: Replicase polyprotein 1ab, main protease (rep, Severe acute respiratory syndrome coronavirus 2, UniProt P0DTD1)
`CC1=C(CCC(=O)O)c2cc3[nH]c(cc4nc(cc5[nH]c(cc1n2)c(C)c5C(C)O)C(C)=C4C(C)O)c(C)c3CCC(=O)O` (stereo not drawn) has an inhibition of 46.2%.
With `O=C(O)[C@@H](S)[C@@H](S)C(=O)O` the inhibition was 99.3%.
`CO/N=C(\C(=O)N[C@@H]1C(=O)N2C(C(=O)O)=C(CSC(=O)c3ccco3)CS[C@H]12)c1csc(N)n1.Cl` gave an inhibition of 83.8%.
`Cc1ccc(S(=O)(=O)N[C@@H](Cc2ccccc2)C(=O)CCl)cc1` gave an inhibition of 99.7%.

Block 3 — read-out: enzyme activity; action: inhibitor; concentration: 20 µM
Target: Replicase polyprotein 1ab, polymerase (rep, Severe acute respiratory syndrome coronavirus 2, UniProt P0DTD1)
`C=C[C@](C)(O)CC[C@@H]1[C@@]2(C)CCCC(C)(C)[C@@H]2CC[C@@]1(C)O` gave an inhibition of -6.05%.
For `Fc1ccc(-c2cncc(CN3CCN(c4cccc5c4OCCO5)CC3)c2)cc1`, the inhibition was -5.16%.
`CC(C)(N)CC12CC3CC(CC(C3)C1)C2` gave an inhibition of -2.48%.
The inhibition of `CNC(=O)Nc1ccc(-c2nc(N3CC4CCC(C3)O4)c3cnn(C4CCC5(CC4)OCCO5)c3n2)cc1` is reported as -0.72%.
The inhibition of `CO/N=C(\C(=O)N[C@@H]1C(=O)N2C(C(=O)O)=C(CSc3nc(=O)c(O)nn3C)CS[C@H]12)c1csc(N)n1` is reported as 4.42%.
`COc1ccc(-c2cnc3c(-c4cccc5ncccc45)cnn3c2)cc1` gave an inhibition of -3.52%.
With `Cc1cccc(Nc2ccccc2C(=O)O)c1C` the inhibition was 5.15%.
With `N=C(N)c1ccc(/C=C/c2ccc(C(=N)N)cc2O)cc1` the inhibition was 7.26%.
`C[C@H]1C[C@H]2[C@@H]3CCC4=CC(=O)C=C[C@]4(C)[C@H]3C(=O)C[C@]2(C)[C@@]1(O)C(=O)CO` has an inhibition of -3.86%.
`C#C[C@]1(O)CC[C@H]2[C@@H]3CCc4cc(OC)ccc4[C@H]3CC[C@@]21C` gave an inhibition of 7.72%.
For `O=C(O)c1cnn(-c2nc3cc(OC(F)(F)F)c(Cl)cc3[nH]2)c1`, the inhibition was -3.49%.
`CC(C)(C)NCC(O)c1cc(O)cc(O)c1` (stereo not drawn) gave an inhibition of 17.6%.
`O=C(O)CC(=O)C(=O)O` has an inhibition of 3.39%.
For `NC(=O)c1nc(Nc2ccccc2)sc1NC(=O)C1CCCCC1`, the inhibition was -2.23%.
`Nc1nc(/C(=C/CC(=O)O)C(=O)N[C@@H]2C(=O)N3C(C(=O)O)=CCS[C@H]23)cs1` has an inhibition of -9.96%.
The inhibition of `Cc1ccc(C(=O)N(CCCN)[C@@H](c2oc3cc(Cl)ccc3c(=O)c2Cc2ccccc2)C(C)C)cc1` is reported as 7.52%.
For `CC1=NN(c2ccccc2)C(=O)C1`, the inhibition was -1.18%.
The inhibition of `CCCn1cnc2c1c(=O)n(CCCCC(C)=O)c(=O)n2C` is reported as -0.18%.
`COC(=O)N[C@H](C(=O)N[C@@H](Cc1ccccc1)[C@@H](O)CN(Cc1ccc(-c2ccccn2)cc1)NC(=O)[C@@H](NC(=O)OC)C(C)(C)C)C(C)(C)C` gave an inhibition of -2.76%.
With `O[C@@H](c1cc(C(F)(F)F)nc2c(C(F)(F)F)cccc12)[C@H]1CCCCN1` the inhibition was 7.71%.

Block 4 — technique: RNA Bind-n-Seq; molecule type: RNA; matrix: in vitro; concentration: 365 nM; relative to: no-protein control; reading: higher = stronger binding
Target: RNA binding protein fox-1 homolog 2, RRM domain, GST-SBP tag (RBFOX2, Homo sapiens, UniProt O43251-10, residues 100-194)
Notes: natural RNA segment, single round, ends assumed
All sequences stand within: GGGAGUUCUACAGUCCGACGAUC … UGGAAUUCUCGGGUGCCAA
Construct (chain): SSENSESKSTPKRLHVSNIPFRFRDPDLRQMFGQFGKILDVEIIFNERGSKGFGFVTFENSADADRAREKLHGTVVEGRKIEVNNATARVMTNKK
`GUCCACUGAGCCACAGUACCAGCCCGGGGAGAACCUUAGGGACUGUGUGCGCAGAACUGUCACCUCUAGGCUUCCGGGUGUUGCCUCCGAUGCACCUGCCUCCCUUCAUC` — result for “RBNS enrichment (R)”: 0.299.
Under “RBNS enrichment (R)”, `UAUGUGAUGUUGUUAAUUUCUUUUAUUGCAUUAUAAAAUAAAAGGAUUAUGUAUUUUUAACUAAGGUGAGACAUUGAUAUAUCCUUUUGCUACAAGCUAUAGCUAAUGUG` is recorded as 1.7.
For `ACUGUACAGAUGUGCAUUUUCCUUUUGGUAUAAAUGGUCCACAGCACUAACUGGUAAGGCUUAUUGUACAGUAUAUUGUCAGUAUUCUUCUGGUUCAGCAUACCUUAUAG`, “RBNS enrichment (R)” read 0.527.
`CCUUCAGACACUCUGCCUCUUAGUGCCAAACCCACCGUCAGACCAAGAGUCAGGACUUCAGGACUCUGUCCUUCCUUCCCACUCAUCGCCCUUGCAGACAGCGUGUGCUU` — result for “RBNS enrichment (R)”: 0.405.
For `UGCCUGGUACCAGAAGACAGGGAGGCAGAGACUGGGAGCCGUGAUGUGCCCUUGGGCUGAGCCCUAGACUUGGGGCUCUGUACAUAGCUAUGAAGAAAAACACAAAGUGU`, “RBNS enrichment (R)” read 0.392.
Under “RBNS enrichment (R)”, `AAAUUGCUCUUCUGAAAAUUGUGUCCUGUGCUUUUAGACUUUGGAGUUCCACAGAUAGUAAAAAUAUAGCCUUCACAAUUUUUUAAUAAUCAGUAUCAUUUCUACACCAA` is recorded as 0.579.
Under “RBNS enrichment (R)”, `AGCUCUGAGCUACAUGAAGUAAUGAGCAGAGAUGAGUACUCACAGUCCAUCACCAGGCCAGCUUCUCCUCAGCCCUCUGUUCUUGAAGGGGUGUGCUGGGGCAAGCAUCC` is recorded as 0.308.
`UGUGAAUAUUUUCAACUAUGUAGGUAAAUUCUUAAUGUUCACAUAGUGAAAUAAAUUCUGAUUCUUCAAAUUAAAUUCUGUUCUCUUGUCAAGGGGGCAGGUGGGUGAAG` — result for “RBNS enrichment (R)”: 0.461.

Further values, each from its own experiment
For `benzalkonium chloride`, the nuclei number was 84.2% (HEK-293T/ACE2; concentration not given; relative to: vehicle).
`CC[C@@H]1/C=C(\C)C[C@H](C)C[C@H](OC)[C@H]2O[C@@](O)(C(=O)C(=O)N3CCCC[C@H]3C(=O)O[C@H](/C(C)=C/[C@@H]3CC[C@H](Cl)[C@H](OC)C3)[C@H](C)[C@@H](O)CC1=O)[C@H](C)C[C@@H]2OC` gave a GFP-positive cells of 73.6% (HEK-293T; pseudovirus infection; VSV pseudotyped with SARS-CoV-2 spike; 10 µM, 16 h; relative to: vehicle-treated).

Excerpt of the above (block 2):
`CC1=C(CCC(=O)O)c2cc3[nH]c(cc4nc(cc5[nH]c(cc1n2)c(C)c5C(C)O)C(C)=C4C(C)O)c(C)c3CCC(=O)O` (stereo not drawn) has an inhibition of 46.2%.
`CO/N=C(\C(=O)N[C@@H]1C(=O)N2C(C(=O)O)=C(CSC(=O)c3ccco3)CS[C@H]12)c1csc(N)n1.Cl` gave an inhibition of 83.8%.
With `O=C(O)[C@@H](S)[C@@H](S)C(=O)O` the inhibition was 99.3%.
`Cc1ccc(S(=O)(=O)N[C@@H](Cc2ccccc2)C(=O)CCl)cc1` gave an inhibition of 99.7%.
